Results collected from several papers.
Numbers after ± are the reported error.
Cell line: HeLa

Compound	assay	setting	how to read	measurement	value
Clc1nc(NCc2ccco2)c2[nH]cnc2n1	GLA poison exon splicing reporter	10 µM, 18 h	–	mean GFP/RFP ratio	1
COc1ccc(NC(=S)N/N=C/c2cccc3cc4ccccc4nc23)cc1	annexin V/PI	concentration not given, 48 h, dosed at IC25, with: N-acetylcysteine	–	early apoptotic cells	7.2%
CN(C)CCCOc1cc(NC(=O)c2cc(Cl)cc(C(=O)Nc3cc(OCCCN(C)C)c4ccccc4n3)n2)nc2ccccc12	cell viability, CellTiter-Glo	72 h	baseline: IC50 HeLa over WI-38	selectivity ratio	2.3
COc1cccc2c1C(=O)c1c(O)c3c(c(O)c1C2=O)C[C@@](O)(C(=O)CO)C[C@@H]3O[C@H]1C[C@H](N)[C@H](O)[C@H](C)O1	MTT	100 µM, 24 h	–	growth inhibition	69.2 ± 1.98%
NCCOc1cc(NC(=O)c2cc(OCc3c[nH]nn3)cc(C(=O)Nc3cc(OCCN)c4ccccc4n3)n2)nc2ccccc12	cell viability, CellTiter-Glo	72 h	baseline: IC50 HeLa over WI-38	selectivity ratio	5.2
CN1C[C@H](COc2nccc3c(NCc4ccco4)cc(Cl)nc23)OC1=O	splicing reporter, measured: GLA	10 µM, 18 h	–	GFP/RFP ratio	5.13
COc1ccc(COC[C@@](O)(CNCc2ccc(F)cc2)[C@@H]2CC[C@@H](C)C[C@H]2OCc2ccc(OC)cc2)cc1	cell growth, inhibitor, MTT	72 h	–	IC50	2840 nM
NCCOc1cc(C(=O)Nc2cc(OCCN)c3ccccc3n2)nc(C(=O)Nc2cc(OCCN)c3ccccc3n2)c1	cell viability, CellTiter-Glo	72 h	baseline: IC50 HeLa over WI-38	selectivity ratio	4.4
C[C@@H]1CC[C@@H]([C@@](O)(CNCc2cccc3ccccc23)COCc2ccccc2)[C@H](OCc2ccccc2)C1	cell growth, inhibitor, MTT	72 h	–	IC50	2520 nM
O=C(NC[C@H](O)CN1CCc2ccccc2C1)c1cc(NC2COC2)ncn1	co-immunoprecipitation, western blot, measured: PRPF6 with GFP-SART3	10 µM, 3 days	–	protein interaction	decreased
Clc1nc(Nc2ccc(N3CCOCC3)cc2)c2ncn(C3CCCCC3)c2n1	splicing reporter, measured: GLA	10 µM, 18 h	–	GFP/RFP ratio	0.17
NCCCOc1cc(NC(=O)c2cccc(C(=O)Nc3cc(OCCCN)c4ccccc4n3)n2)nc2ccccc12	cell viability, CellTiter-Glo	72 h	baseline: IC50 HeLa over WI-38	selectivity ratio	1.1
COC(=O)COc1c(Cc2cc(C(C)(C)CC(C)(C)C)cc(-n3nc4ccccc4n3)c2OCC(=O)OC)cc(C(C)(C)CC(C)(C)C)cc1-n1nc2ccccc2n1	MTT	100 µM, 24 h	–	growth inhibition	55.1 ± 1.98%
COc1cccc(Nc2nc(Cl)nc3nc[nH]c23)c1	splicing reporter, measured: GLA	10 µM, 18 h	–	GFP/RFP ratio	0.77
C[C@]1(c2nc3c(C(N)=O)cccc3[nH]2)CCCN1	PAR formation, inhibitor	with: hydrogen peroxide	–	EC50	4.5 nM
Nc1nc(Cl)nc2nc[nH]c12	splicing reporter, measured: GLA	10 µM, 18 h	–	GFP/RFP ratio	0.26
CC(=O)N[C@@H](CS)C(=O)O	annexin V/PI flow cytometry	concentration not given, 48 h	–	necrotic cells	3.76 ± 2%
CC[C@H](C)[C@@H]1NC(=O)[C@H](Cc2ccc(O)cc2)NC(=O)[C@H](CC(C)C)NC(=O)[C@@H]2CCCN2C(=O)[C@H](NC(=O)[C@@H](CCCNC(=N)N)NC(=O)[C@@H](CCCNC(=N)N)NC(=O)[C@H](CCCCN=[N+]=[N-])NC(C)=O)CSCSC[C@@H](C(=O)N[C@H](CCCNC(=N)N)C(=O)N[C@H](CCCNC(=N)N)C(N)=O)NC(=O)[C@H](C(C)C)NC(=O)[C@@H]2CCCN2C(=O)[C@H](CC(=O)O)NC(=O)[C@H](Cc2ccc(O)cc2)NC(=O)[C@H](CO)NC1=O	cell permeability, NanoClick	4 h	–	EC50	> 10000 nM
COc1cccc2c1C(=O)c1c(O)c3c(c(O)c1C2=O)C[C@@](O)(C(=O)CO)C[C@@H]3O[C@H]1C[C@H](N)[C@H](O)[C@H](C)O1	cell viability, MTT	24 h	–	IC50	1.28 ± 0.07 µg/mL

Compound	assay	setting	how to read	measurement	value
NCCOc1cc(NC(=O)c2cccc(C(=O)Nc3cc(OCCN)c4ccccc4n3)n2)nc2ccccc12	cell viability, CellTiter-Glo	72 h	baseline: IC50 HeLa over WI-38	selectivity ratio	0.9
C=C(COCc1ccc(OC)cc1)[C@@H]1CC[C@@H](C)C[C@H]1OCc1ccc(OC)cc1	cell growth, inhibitor, MTT	72 h	–	IC50	24700 nM
Cn1cnc2c(NCc3ccccc3)nc(Cl)nc21	splicing reporter, measured: GLA	10 µM, 18 h	–	GFP/RFP ratio	0.17
COc1ccccc1CNC[C@@](C)(O)[C@@H]1CC[C@@H](C)C[C@H]1OCc1ccccc1	cell growth, inhibitor, MTT	72 h	–	IC50	4590 nM
COc1cccc2c1C(=O)c1c(O)c3c(c(O)c1C2=O)C[C@@](O)(C(=O)CO)C[C@@H]3O[C@H]1C[C@H](N)[C@H](O)[C@H](C)O1	cell viability, MTT	48 h	–	EC50	2910 nM
Clc1cc(NCc2ccco2)ncn1	splicing reporter, measured: GLA	10 µM, 18 h	–	GFP/RFP ratio	0.42
Cc1cc(C)c(CNC(=O)c2cc(Cl)c3c(c2C)O[C@@](C)([C@H]2CC[C@H](N(C)C)CC2)O3)c(=O)[nH]1	histone methylation reduction, AlphaLISA, measured: H3K27me3	72 h	–	EC50	0.7 nM
NCCCOc1cc(NC(=O)c2cc(Cl)cc(C(=O)Nc3cc(OCCCN)c4ccccc4n3)n2)nc2ccccc12	cell viability, CellTiter-Glo	72 h	baseline: IC50 HeLa over WI-38	selectivity ratio	0.9
C[C@@H]1CC[C@@H]([C@](C)(O)Cn2cnc3ccccc32)[C@H](OCc2ccccc2)C1	cell growth, inhibitor, MTT	72 h	–	IC50	11600 nM
O=S(=O)(NCCNC/C=C/c1ccc(Br)cc1)c1cccc2cnccc12	plasma membrane PKA reporter, inhibitor	concentration not given, with: forskolin/IBMX	–	PKA activity	inhibited
CN(C)CCOc1cc(NC(=O)c2cc(Cl)cc(C(=O)Nc3cc(OCCN(C)C)c4ccccc4n3)n2)nc2ccccc12	cell viability, CellTiter-Glo	72 h	baseline: IC50 HeLa over WI-38	selectivity ratio	1.3
C[C@@H]1CC[C@@H]([C@](C)(O)CNCc2ccccc2)[C@H](OCc2ccccc2)C1	cell growth, inhibitor, MTT	72 h	–	IC50	2840 nM
CCCCCCCC/C=C\CCCCCCCC(=O)O	–	200 µM, 3 h, BSA complex	–	mitochondrial length decrease	32%
NCCOc1cc(C(=O)Nc2cc(OCCN3CCCC3)c3ccccc3n2)nc(C(=O)Nc2cc(OCCN3CCCC3)c3ccccc3n2)c1	cell viability, CellTiter-Glo	72 h	baseline: IC50 HeLa over WI-38	selectivity ratio	1.4
C[C@@H]1CC[C@@H]([C@](O)(CNCc2ccc(F)cc2)COCc2ccc(F)cc2)[C@H](OCc2ccc(F)cc2)C1	cell growth, inhibitor, MTT	72 h	–	IC50	2880 nM
CN1CC[C@H](c2c(O)cc(O)c3c(=O)cc(-c4ccccc4Cl)oc23)[C@H](O)C1	RT-qPCR, measured: cyclin A, Cdc2	200 nM	–	mRNA level	decreased
C[C@@H]1CC[C@@H]([C@](C)(O)CNCc2ccc(F)cc2)[C@H](OCc2ccccc2)C1	cell growth, inhibitor, MTT	72 h	–	IC50	24300 nM
Nc1ncnc2c1ncn2C1CCCO1 (stereo not shown)	splicing reporter, measured: GLA	10 µM, 18 h	–	GFP/RFP ratio	0.24

Excerpt of the above:
Compound	assay	setting	how to read	measurement	value
C[C@@H]1CC[C@@H]([C@](C)(O)Cn2cnc3ccccc32)[C@H](OCc2ccccc2)C1	cell growth, inhibitor, MTT	72 h	–	IC50	11600 nM
O=S(=O)(NCCNC/C=C/c1ccc(Br)cc1)c1cccc2cnccc12	plasma membrane PKA reporter, inhibitor	concentration not given, with: forskolin/IBMX	–	PKA activity	inhibited
CN(C)CCOc1cc(NC(=O)c2cc(Cl)cc(C(=O)Nc3cc(OCCN(C)C)c4ccccc4n3)n2)nc2ccccc12	cell viability, CellTiter-Glo	72 h	baseline: IC50 HeLa over WI-38	selectivity ratio	1.3
C[C@@H]1CC[C@@H]([C@](C)(O)CNCc2ccccc2)[C@H](OCc2ccccc2)C1	cell growth, inhibitor, MTT	72 h	–	IC50	2840 nM
